Measured values gathered from unrelated publications.
Lines come from different studies, so protocols differ. Numbers after ± are the reported error.

O=C1CCc2ccc(OCCCCN3CCN(c4cccc(Cl)c4Cl)CC3)cc2N1 — terminal half-life (healthy Japanese men, CYP2D6 IM, plasma; oral, 3 mg aripiprazole single, added: fluvoxamine 100 mg/day): 157 ± 19 h
CS(=O)(=O)n1cc2c(n1)CN([C@H]1CO[C@H](c3cc(F)ccc3F)[C@@H](N)C1)C2 — concentration at 168 h (healthy male human, plasma; oral, 10 mg once weekly, day 15, fasted, geometric mean): 11.9 nM
O=S(=O)(c1cccc2cnccc12)N1CCCNCC1 — recovered dose in apparatus (rat pulmonary arterial hypertension, isolated perfused lung; pulmonary artery, 3 mg/kg, 2 h): 11.3 ± 3%
CN(Cc1cnc2nc(N)nc(N)c2n1)c1ccc(C(=O)N[C@@H](CCC(=O)O)C(=O)O)cc1 — mean residence time (Sprague-Dawley rat; oral, 5.0 mg/kg): 4.79 ± 0.44 h
C#C[C@]1(COP(=O)(O)OP(=O)(O)OP(=O)(O)O)O[C@@H](n2cnc3c(N)nc(F)nc32)C[C@@H]1O — half-life (human PBMC tumour model; host not given, plasma; oral, 30 mg, single dose, fed): 145 h
C[C@H](N)C(=O)N[C@H](Cc1c[nH]c2ccccc12)C(=O)N[C@@H](Cc1ccccc1)C(=O)N[C@H](C(=O)N1CCC(C(N)=O)CC1)[C@H](c1ccccc1)c1c[nH]c2ccccc12 — HPLC retention (RP-HPLC Kinetex Biphenyl; acetonitrile/water TFA gradient): 45 %B
CNC(=O)c1ccc(-c2cnc3ncc(Cc4ccc5ncccc5c4)n3n2)cc1F — Cmax (geometric mean) (human, moderate hepatic impairment (Child-Pugh B), plasma; oral, 200 mg single dose): 1440 ng/mL
COc1cc(OC)c(/C=C/S(=O)(=O)Cc2ccc(OC)c(NCC(=O)O)c2)c(OC)c1 — Vss/F (cancer patients, phase I, plasma; oral, 140 mg twice daily, day 21 cycle 1): 788 ± 415 L
Oc1ccc2c3c(cnc2c1)-c1ccc(C(F)(F)F)cc1O[C@@H]3c1ccc(OCCN2CC(CF)C2)cc1 — AUC(0-tlast) (healthy fasted women, plasma; oral tablets, 400 mg): 1900 ng·h/mL
CNCc1ccc(-c2[nH]c3cc(F)cc4c3c2CCNC4=O)cc1 — Cmax (human patients, plasma; oral, 300 mg once daily, day 1, single dose, arithmetic mean): 629 ng/mL
Cc1nc2cccc(OCC(C)(C)C(=O)NC(C)C)c2c(N)c1C(=O)O — AUC(0-t) (female Sprague-Dawley rat, plasma; oral, 10 mg/kg): 58.9 ng·h/mL
CC(C)[C@H](NC(=O)[C@@H]1CCCN1C(=O)[C@H](CCCNC(=N)N)NC(=O)[C@H](CS)NC(=O)[C@H](Cc1c[nH]c2ccccc12)NC(=O)[C@H](CCCNC(=N)N)NC(=O)[C@@H](Cc1ccccc1)NC(=O)[C@H](Cc1c[nH]cn1)NC(=O)[C@H](CCC(=O)O)NC(=O)[C@H](CS)NC(=O)[C@H](CS)NC(=O)[C@H](CCCNC(=N)N)NC(=O)[C@@H]1CC(=O)N[C@@H](CCCNC(=N)N)C(=O)N[C@@H](C)C(=O)N[C@@H](CC(=O)O)C(=O)N[C@H](Cc2ccc(O)cc2)C(=O)N1)C(N)=O [technetium-99m labelled] — tissue uptake (C57 mouse, intestine; intravenous, 0.037 MBq, 24 h): 0.41 ± 0.11 %ID
O=C(c1ccc(F)c(F)c1Nc1ccc(I)cc1F)N1CC(O)([C@@H]2CCCCN2)C1 — AUC(0-24) at steady state (human, dose escalation, plasma; oral, 1.0 mg/kg, geometric mean): 2560 ng·h/mL
CCN(CC)CCNC(=O)c1c(C)[nH]c(/C=C2\C(=O)Nc3ccc(F)cc32)c1C — maximum trough plasma concentration (human, plasma; oral, 15 mg/m2, day 7): 50.4 ng/mL
CCc1ccc(C(=O)Nc2cc3nc(C4CCCCC4)[nH]c3cc2N(C)C)cc1 — IC50 (Vero; cytotoxicity, Alamar Blue; 3 days, 37 °C): > 100 µg/mL
CCCC[C@H](NC(C)=O)C(=O)N[C@H]1CCC(=O)NC[C@@H](C(=O)N[C@@H](Cc2c[nH]c3ccccc23)C(N)=O)NC(=O)[C@H](CCCNC(=N)N)NC(=O)[C@@H](Cc2ccccc2)NC(=O)[C@H](Cc2c[nH]cn2)NC1=O — AUC(0-last) (beagle dog, male, plasma; subcutaneous, 1.5 mg/kg daily, day 1): 247 ng·h/mL
CCN(CC)c1cc2[nH]c(C3CCCCC3)nc2cc1NC(=O)NCc1ccccc1 — IC50 (Vero; cytotoxicity, Alamar Blue; 3 days, 37 °C): > 100 µg/mL
CC(C)[C@H](NC(=O)[C@@H]1CCCN1C(=O)[C@H](CCCNC(=N)N)NC(=O)[C@H](CS)NC(=O)[C@H](Cc1c[nH]c2ccccc12)NC(=O)[C@H](CCCNC(=N)N)NC(=O)[C@@H](Cc1ccccc1)NC(=O)[C@H](Cc1c[nH]cn1)NC(=O)[C@H](CCC(=O)O)NC(=O)[C@H](CS)NC(=O)[C@H](CS)NC(=O)[C@H](CCCCN)NC(=O)[C@@H]1CC(=O)N[C@@H](CCCNC(=N)N)C(=O)N[C@@H](C)C(=O)N[C@@H](CC(=O)O)C(=O)N[C@H](Cc2ccc(O)cc2)C(=O)N1)C(N)=O [technetium-99m labelled] — tissue uptake (C57 mice, heart; intravenous, 0.037 MBq, 24 h): 0.13 ± 0.04 %ID/g

Some of these lines once more:
CN(Cc1cnc2nc(N)nc(N)c2n1)c1ccc(C(=O)N[C@@H](CCC(=O)O)C(=O)O)cc1 — mean residence time (Sprague-Dawley rat; oral, 5.0 mg/kg): 4.79 ± 0.44 h
COc1cc(OC)c(/C=C/S(=O)(=O)Cc2ccc(OC)c(NCC(=O)O)c2)c(OC)c1 — Vss/F (cancer patients, phase I, plasma; oral, 140 mg twice daily, day 21 cycle 1): 788 ± 415 L
